Measured values gathered from unrelated publications.
Lines come from different studies, so protocols differ. Values joined by “and” are separate records of one study, mostly repeats; a detail may differ. ± marks the error that the study gave.
Target: Voltage-gated inwardly rectifying potassium channel KCNH2 (KCNH2, Homo sapiens, UniProt Q12809)
Sequence of UniProt Q12809 (whole entry, looked up): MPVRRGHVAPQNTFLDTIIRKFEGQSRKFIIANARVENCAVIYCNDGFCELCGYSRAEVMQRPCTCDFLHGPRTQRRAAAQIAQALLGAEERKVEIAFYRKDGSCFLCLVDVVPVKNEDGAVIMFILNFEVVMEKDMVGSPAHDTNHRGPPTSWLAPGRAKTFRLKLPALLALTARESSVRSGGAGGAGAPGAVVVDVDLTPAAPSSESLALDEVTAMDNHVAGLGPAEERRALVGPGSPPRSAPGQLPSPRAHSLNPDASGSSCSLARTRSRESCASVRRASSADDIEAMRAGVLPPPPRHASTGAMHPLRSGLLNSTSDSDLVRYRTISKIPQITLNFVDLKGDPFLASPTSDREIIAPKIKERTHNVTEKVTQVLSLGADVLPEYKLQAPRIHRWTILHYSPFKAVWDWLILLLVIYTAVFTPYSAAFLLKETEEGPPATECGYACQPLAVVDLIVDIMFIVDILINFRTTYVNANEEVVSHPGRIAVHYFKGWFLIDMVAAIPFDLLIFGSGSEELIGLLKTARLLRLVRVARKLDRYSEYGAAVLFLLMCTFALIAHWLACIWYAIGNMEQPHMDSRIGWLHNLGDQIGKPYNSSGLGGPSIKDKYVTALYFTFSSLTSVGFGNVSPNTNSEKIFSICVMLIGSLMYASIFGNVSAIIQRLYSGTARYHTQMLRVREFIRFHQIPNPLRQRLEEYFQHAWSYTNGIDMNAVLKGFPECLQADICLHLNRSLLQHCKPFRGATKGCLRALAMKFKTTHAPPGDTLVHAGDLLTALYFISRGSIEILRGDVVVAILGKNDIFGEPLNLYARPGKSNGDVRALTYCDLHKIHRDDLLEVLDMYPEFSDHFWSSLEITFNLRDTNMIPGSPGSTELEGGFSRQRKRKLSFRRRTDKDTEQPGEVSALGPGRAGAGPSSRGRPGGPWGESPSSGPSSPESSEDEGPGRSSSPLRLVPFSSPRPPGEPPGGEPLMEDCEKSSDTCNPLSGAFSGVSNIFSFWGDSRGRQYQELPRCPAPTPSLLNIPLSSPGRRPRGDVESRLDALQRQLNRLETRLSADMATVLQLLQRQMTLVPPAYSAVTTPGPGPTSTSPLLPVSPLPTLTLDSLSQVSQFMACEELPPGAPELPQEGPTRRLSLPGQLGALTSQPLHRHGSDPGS

SMILES | observed | action | method | cell line | time | pH | IC50
C[C@H]1C[C@@H](N2C(=N)N[C@](C)(c3cccc(NC(=O)c4cccc(C#N)c4)c3Cl)CC2=O)CCO1 | potassium current | inhibitor |  |  |  | pH 7.4 | 32.5 µM
COc1ccc(Cc2nc(NC(=O)C34CC5CC(CC(C5)C3)C4)n(C)c2Cc2ccc(OC)c(OC)c2)cc1 |  |  |  |  |  |  | 22.9 µM
CC1(F)CN(C(=O)Cn2c(=O)c(C(=O)NCc3ccc(Cl)cc3)cc3nccnc32)C1 | potassium current | inhibitor | automated patch clamp | CHO cells expressing hERG |  |  | 5.9 µM
COc1ccc2c(c1)CN(C(=O)CCN1CCC(Cc3ccccc3)CC1)CC[S@@+]2[O-] | IKr current | inhibitor |  |  |  |  | 0.43 µM
CC1(F)CN(C(=O)Cn2c(=O)c(C(=O)NCc3ccc(Cl)cc3)cc3nc(N4CCNC4=O)cnc32)C1 | ion current |  | automated patch clamp | CHO expressing hERG |  |  | 38 µM and > 30 µM
COc1ccn2c(Nc3ccccc3F)c(-c3ccncn3)nc2c1 | ion current | blocker |  |  |  |  | > 101 µM
COc1ccc2c(Cc3ccccc3F)c3[n+](cc2c1OC)CCc1cc2c(cc1-3)OCO2 |  |  |  |  | 1 h | pH 7.4 | 1.57 ± 0.55 µM
Cc1ccc2c(c1)nc(/C=C/c1cccc3cccnc13)n2-c1cccc(OCCCN2CCN(C)CC2)c1 | tail current |  |  |  |  |  | 4.52 µM
COc1ccc2cc3[n+](cc2c1OC)CCc1cc2c(cc1-3)OCO2 |  |  |  |  | 1 h | pH 7.4 | 5.58 ± 1.41 µM
O=c1c2c([nH]c3cc(Oc4ccc(OC(F)(F)F)cc4)c(F)cc13)CCCC2 | ion current | inhibitor |  |  |  |  | > 100 µM
COc1cccc(CCc2cc(O)c(=O)[nH]n2)c1 |  |  |  |  |  |  | > 10 µM

A few entries again:
SMILES | observed | action | method | cell line | time | pH | IC50
COc1ccc2c(c1)CN(C(=O)CCN1CCC(Cc3ccccc3)CC1)CC[S@@+]2[O-] | IKr current | inhibitor |  |  |  |  | 0.43 µM
COc1ccn2c(Nc3ccccc3F)c(-c3ccncn3)nc2c1 | ion current | blocker |  |  |  |  | > 101 µM
